# Assay results gathered from unrelated publications.
# Each line is one published result; not all experiments were run side by side. “And” joins repeats or separate records; there may be more than shown. ± marks the error that the study gave.
SMILES,test,system,setting,how to read,quantity,result
NC[C@@H]1O[C@H](O[C@H]2[C@@H](O)[C@H](O[C@@H]3[C@@H](O)[C@H](N)C[C@H](N)[C@H]3O[C@H]3O[C@H](CO)[C@@H](O)[C@H](O)[C@H]3N)O[C@@H]2CO)[C@H](N)[C@@H](O)[C@@H]1O,,NSG mice,"dose not given, day 5 of treatment",,body weight,22.9 g and 24.3 g and 22.6 g and 23.4 g and 23.5 g and 20.5 g and 21.4 g and 22.7 g
Cl.[2H]C([2H])([2H])CC(=O)c1cnc(NC(=O)C2CC2)cc1Nc1cccc(-c2ncn(C([2H])([2H])[2H])n2)c1OC,geometric mean,human,"5 mg single dose, fasted, liquid",,CL/F,14.9 L/h
CC(=O)O[C@H]1C(=O)[C@@]2(C)[C@H]([C@H](OC(=O)c3ccccc3)[C@]3(O)C[C@H](OC(=O)[C@H](O)[C@@H](NC(=O)c4ccccc4)c4ccccc4)C(C)=C1C3(C)C)[C@]1(OC(C)=O)CO[C@@H]1C[C@@H]2O,measured: neutropenia,patients with advanced solid tumours,"intravenous, dose not given, grade 3 and 4, possibly related to drug",,adverse event incidence,22%
NC(=O)c1[nH]cnc1N,,"leiomyosarcoma patients, plasma","intravenous, dose not given, cycle 2 day 1, with: dacarbazine co-administered",relative to: cycle 1 day 1,AUC(0-8h) reduction,72.7%
CCOC(=O)[C@H](CCc1ccccc1)N[C@@H](C)C(=O)N1[C@H](C(=O)O)C[C@H]2CCCC[C@@H]21,,processed human plasma,"30 pg/mL, 48 h, 4 °C",relative to: nominal,autosampler stability,103 ± 9.5%
Cc1cccc(CNC(=O)c2cn(CCNC(=O)c3ccccc3Sc3c([N+](=O)[O-])ncn3C)c3cc4c(cc3c2=O)OCO4)n1,LC-MS/MS,"CD-1 mouse, whole blood","1 µM, 0.25 h",,remaining compound,98.8%
CCN(CC)CCOC(=O)c1ccc(N)cc1,LC-MS,"BALB/c nude mouse, plasma","2 µM, 0.75 h",,remaining compound,0.07%
Cc1nc2cccc(OCC(C)(C)C(=O)NC(C)C)c2c(N)c1C(=O)O,,"male Swiss albino CD-1 mouse, bone marrow","oral, 1000 mg/kg, 48 h",,PCE/NCE ratio,0.85
C[Si](C)(C)O[Si](C)(C)O[Si](C)(C)C,,air/water,concentration not given,,entropy of phase change,0.191 kJ/(mol·K)
Cc1c(-c2ccc(N3CCc4cccc(C(=O)Nc5nc6ccccc6s5)c4C3)nc2C(=O)O)cnn1CC12CC3(C)CC(C)(C1)CC(OCCNCC[C@H](O)CO)(C3)C2,,anaesthetised male beagle dogs,"intravenous infusion, 0.3 mg/kg/min, 120 min",relative to: vehicle,systemic vascular resistance change,-9%
CC[C@H](C)[C@H](NC(=O)CN)C(=O)N[C@@H](C)C(=O)N[C@@H](CC(=O)O)C(=O)N[C@@H](C)C(=O)N[C@H](C(=O)N[C@@H](CCCCN)C(=O)N[C@@H](C)C(=O)N[C@H](C(=O)N[C@@H](C)C(=O)N[C@@H](CCCCN)C(=O)N[C@@H](C)C(=O)N[C@@H](CC(C)C)C(=O)NCC(N)=O)[C@@H](C)CC)[C@@H](C)CC,circular dichroism,10 mM SDS,100 µM,,helix content,2%
O=C(N[C@H](Cc1c[nH]c2ccccc12)C(=O)Nc1ccncc1)c1ccc(-c2ccc(F)c(C(F)(F)F)c2)cc1F,,"Swiss Webster mouse, female, muscle","oral, 50 mg/kg, 2 h, 20% HPβCD vehicle",,concentration,630 nM
Cc1cc(NC2CCN(C(=O)OC3CCN(C(=O)/C=C/CN(C)C)C3)CC2)n2ncc(C(C)C)c2n1 (stereo not drawn),,patients with advanced solid tumours,"dose not given, Total arm, any grade",,patients with adverse events,96%
O=C(Nc1nc2cccc(-c3ccc(CN4CCS(=O)(=O)CC4)cc3)n2n1)C1CC1,measured: vertigo,rheumatoid arthritis patients,"oral, 200 mg once daily, 4 weeks, any relatedness",,treatment-emergent adverse events,0%
O=C(O)CN1CCCN2CCN(CC(=O)O)CCCN(CC1)Cc1cccc(n1)C2,,5 M HCl,90 °C,,copper(II) complex dissociation half-life,2.7 h
C[C@@H](N)C1CCN(S(=O)(=O)c2cccc3cnccc23)CC1,,healthy volunteers,"25 mg, fasted",,participants with hypotension,0%
OCC1=C[C@@H](O)[C@@H]2C=CO[C@@H](O[C@@H]3O[C@H](CO)[C@@H](O)[C@H](O)[C@H]3O)[C@H]12,three freeze-thaw cycles,rat plasma,"1000 ng/mL, -70 °C freeze",,accuracy,94.5%
COc1ccc2c(c1)CN(C(=O)CCN1CCC(Cc3ccccc3)CC1)CC[S@@+]2[O-],telemetry,conscious male beagle dogs,"intravenous, 8 mg/kg, 24 h",,PQ interval,87 ± 10 ms
O=C(COc1ccc(Cl)cc1)NC12CC(c3nnc([C@H]4C[C@@H](OC(F)(F)F)C4)o3)(C1)C2,,"healthy human volunteers fasted, plasma","oral, 100 mg single dose, arithmetic mean",,AUC,88.6 µM·h
CC(C)[C@@H](CS(=O)(=O)C(C)C)N1C(=O)[C@@](C)(CC(=O)O)C[C@H](c2cccc(Cl)c2)[C@H]1c1ccc(Cl)cc1,,"FVB mouse, Abcg2 knockout, brain","intravenous, 20 mg/kg, unit not given",relative to: knockout Kp over wild-type Kp,brain distribution advantage,0.75
O=C1NCCc2nc(OCc3cccc(F)c3)ccc21,measured: Irritability,Sprague-Dawley rat male,"oral, 100 mg/kg, 0 min","relative to: baseline, direction not given",Irwin test score,0
CNCCOC12CC3(C)CC(C)(CC(Cn4ncc(-c5ccc(N6CCc7cccc(C(=O)Nc8nc9ccccc9s8)c7C6)nc5C(=O)O)c4C)(C3)C1)C2,,anaesthetised male beagle dogs,"intravenous bolus, 0.03 mg/kg, 210 min",,plasma concentration,0 ng/mL
CCn1ccc(=O)c(O)c1C.Cl,"shake-flask, measured: iron(III) complex",1-octanol/Tris buffer,"pH 7.4, ligand:iron 10:1",,partition coefficient,0.04 ± 0.006
Cc1cc(-c2nccc3c2ccn3CC(=O)Nc2ccc(-c3cnccn3)cn2)ccn1,,human,"MAD part, 15 mg once daily",,subjects with TEAE leading to discontinuation,11.1%
C[C@@H]1COCCN1c1cc(C2([S@](C)(=N)=O)CC2)nc(-c2cc[nH]c3nccc2-3)n1,,Japanese advanced solid tumour patients,"oral, 240 mg twice daily, CTCAE grade ≥3",,Pruritus incidence,0%
c1ccc2c(c1)c1cccc3ccc4cccc2c4c31,,PDMS-water partitioning,PAH compilation,relative to: maximum over minimum K,literature range factor,7
CCN1/C(=C/C(C)=O)Sc2ccc(F)cc21,,cynomolgus monkey,"oral, 10 mg/kg, 2 h post-dose",relative to: pre-dose,diastolic blood pressure change,106 ± 6.1%
COc1nnc2ccc(N3CCC(c4ccc(OCCN5CCN(C)C(=O)[C@H]5C)cc4)CC3)nn12,,"patients, plasma","oral, 20 mg twice daily, multiple dose, monotherapy",,AUC(0-t),0.279 µM·h
CNc1ccc(-c2nc3ccc(O)cc3s2)cc1 [carbon-11 labelled],microPET/CT imaging,"B6SJL mouse, normal, brain","intravenous, 5 min",,SUV,0.743 ± 0.211
CCc1cc(C(=O)NC)c2nccc(N3CCc4c(cc(Cn5ccnc5)cc4-c4cn(C)nc4C(F)(F)F)C3=O)c2c1,,Sprague Dawley rats,"oral, 100 mg/kg once daily, 7 days",,gastrocnemius weight,2.93 ± 0.063 g
N#Cc1ccc2c(c1)[C@H]1CCCN(C(=O)c3ccc4[nH]cnc4c3)[C@H]1C2,,human females,"160 mg, end of trial",,total testosterone level,0.8 nmol/L
C[C@@](Cc1ccc(O)c(O)c1)(NN)C(=O)O,,"Parkinson's disease patients, plasma","oral, dose not given, 3 h, high levodopa AUC subgroup (11.5 µmol·h/L), median",,AUC(0-t),0.7 µM·h
CNC(=O)c1ccc(-c2cnc3ncc(Cc4ccc5ncccc5c4)n3n2)cc1F,"measured: Ascites, all grades",cancer patients,"oral, dose not given, dose escalation, any causality",,patients with adverse event,18%
CO[C@@H]1[C@H](O)[C@@H](CO)O[C@H]1n1c([N+](=O)[O-])nc2c(=O)[nH]c(N)nc21,"depurination, RP-HPLC",citrate-phosphate buffer 0.5 mM,"1480 min, pH 2, 37 °C",,nucleoside remaining fraction,0.258
Cc1ccc(Sc2ccccc2N2CCNCC2)c(C)c1,measured: Pollakiuria,healthy adult men,"oral, 5 mg daily, 12 days",,participants with TEAE,0%
CC[C@@H]1CN(C(=O)NCC(F)(F)F)C[C@@H]1c1cnc2cnc3[nH]ccc3n12,population PK modelling,human,"oral, extended-release formulation, outliers excluded",,ER dose fraction absorbed zero-order,74.5%
Cc1ccc([C@@H]2O[C@H](CO)[C@@H](O)[C@H](O)[C@H]2O)cc1Cc1ccc(-c2ccc(F)cc2)s1,measured: inorganic phosphorus,Japanese type 2 diabetes patients,"200 mg, day 16, 24 h urine collection",relative to: baseline,urinary phosphate excretion change,38.2 mg
NC1(C(=O)N[C@@H](CCO)c2ccc(Cl)cc2)CCN(c2nc[nH]c3nccc2-3)CC1,,metastatic CRPC patients,"480 mg b.i.d., grade 3 to 4, treatment-related, with: enzalutamide 160 mg daily",,incidence of Hyper-glycaemia,40%
C=C[C@@](C)(/C=C/c1ccc(O)cc1)CCC=C(C)C,post-procedure stability,rat plasma,"1000 ng/mL, 3 h, room temperature",,accuracy,108%
